Assay results gathered from unrelated publications.
Values joined by “and” are separate records of one study, mostly repeats; a detail may differ. Numbers after ± are the reported error.
HDAC11: Histone deacetylase 11 (HDAC11, Homo sapiens, UniProt Q96DB2)
Chain of UniProt Q96DB2 (whole entry, looked up): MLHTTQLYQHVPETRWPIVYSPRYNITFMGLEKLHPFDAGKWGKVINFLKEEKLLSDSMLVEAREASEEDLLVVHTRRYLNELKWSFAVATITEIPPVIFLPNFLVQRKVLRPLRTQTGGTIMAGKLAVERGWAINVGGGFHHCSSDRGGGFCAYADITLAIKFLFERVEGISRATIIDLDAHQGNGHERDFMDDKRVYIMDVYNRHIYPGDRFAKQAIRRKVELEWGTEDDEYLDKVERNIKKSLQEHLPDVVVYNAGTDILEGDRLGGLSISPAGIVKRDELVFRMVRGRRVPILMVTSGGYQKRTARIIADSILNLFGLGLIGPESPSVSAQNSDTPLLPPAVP
HTR5A: 5-hydroxytryptamine receptor 5A (HTR5A, Homo sapiens, UniProt P47898)
Chain of UniProt P47898 (whole entry, looked up): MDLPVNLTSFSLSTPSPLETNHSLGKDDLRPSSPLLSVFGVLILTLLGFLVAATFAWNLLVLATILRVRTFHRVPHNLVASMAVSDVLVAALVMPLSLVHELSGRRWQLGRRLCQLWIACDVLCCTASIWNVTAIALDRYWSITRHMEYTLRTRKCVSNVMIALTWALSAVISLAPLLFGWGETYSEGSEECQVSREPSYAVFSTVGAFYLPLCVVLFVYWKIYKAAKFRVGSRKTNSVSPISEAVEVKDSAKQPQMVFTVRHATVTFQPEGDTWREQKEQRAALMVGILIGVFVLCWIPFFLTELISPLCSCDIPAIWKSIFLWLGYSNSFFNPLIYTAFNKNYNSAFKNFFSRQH
DRD4: D(4) dopamine receptor (DRD4, Homo sapiens, UniProt P21917)
Chain of UniProt P21917 (whole entry, looked up): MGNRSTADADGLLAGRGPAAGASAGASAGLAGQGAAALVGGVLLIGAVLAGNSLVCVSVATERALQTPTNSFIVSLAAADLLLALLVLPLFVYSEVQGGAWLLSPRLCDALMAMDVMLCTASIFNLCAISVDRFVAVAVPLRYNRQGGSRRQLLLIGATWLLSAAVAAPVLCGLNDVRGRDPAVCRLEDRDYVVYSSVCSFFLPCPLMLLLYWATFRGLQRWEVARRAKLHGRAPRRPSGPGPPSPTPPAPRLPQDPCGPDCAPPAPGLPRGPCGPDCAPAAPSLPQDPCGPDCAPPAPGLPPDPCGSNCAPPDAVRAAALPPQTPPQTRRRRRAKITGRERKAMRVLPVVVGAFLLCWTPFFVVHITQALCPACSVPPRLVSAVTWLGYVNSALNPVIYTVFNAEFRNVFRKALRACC
KCNA3: Potassium voltage-gated channel subfamily A member 3 (KCNA3, Homo sapiens, UniProt P22001)
Chain of UniProt P22001 (whole entry, looked up): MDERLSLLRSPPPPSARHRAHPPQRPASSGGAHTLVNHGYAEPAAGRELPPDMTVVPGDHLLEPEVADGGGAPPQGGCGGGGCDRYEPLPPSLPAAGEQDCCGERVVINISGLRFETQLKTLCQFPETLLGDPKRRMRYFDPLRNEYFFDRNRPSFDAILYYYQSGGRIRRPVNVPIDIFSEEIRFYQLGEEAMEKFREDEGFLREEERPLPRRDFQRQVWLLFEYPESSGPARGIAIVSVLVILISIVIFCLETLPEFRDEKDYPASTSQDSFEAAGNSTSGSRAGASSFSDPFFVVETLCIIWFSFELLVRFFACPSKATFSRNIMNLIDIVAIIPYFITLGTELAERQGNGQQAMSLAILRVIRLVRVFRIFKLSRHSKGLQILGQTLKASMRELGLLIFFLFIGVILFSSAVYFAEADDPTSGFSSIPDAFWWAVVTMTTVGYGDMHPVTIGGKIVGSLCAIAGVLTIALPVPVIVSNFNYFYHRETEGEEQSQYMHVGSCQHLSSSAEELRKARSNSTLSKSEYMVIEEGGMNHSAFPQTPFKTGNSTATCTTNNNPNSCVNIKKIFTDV
AMY2: Pancreatic alpha-amylase (AMY2, Sus scrofa, UniProt P00690)
Chain of UniProt P00690 (whole entry, looked up): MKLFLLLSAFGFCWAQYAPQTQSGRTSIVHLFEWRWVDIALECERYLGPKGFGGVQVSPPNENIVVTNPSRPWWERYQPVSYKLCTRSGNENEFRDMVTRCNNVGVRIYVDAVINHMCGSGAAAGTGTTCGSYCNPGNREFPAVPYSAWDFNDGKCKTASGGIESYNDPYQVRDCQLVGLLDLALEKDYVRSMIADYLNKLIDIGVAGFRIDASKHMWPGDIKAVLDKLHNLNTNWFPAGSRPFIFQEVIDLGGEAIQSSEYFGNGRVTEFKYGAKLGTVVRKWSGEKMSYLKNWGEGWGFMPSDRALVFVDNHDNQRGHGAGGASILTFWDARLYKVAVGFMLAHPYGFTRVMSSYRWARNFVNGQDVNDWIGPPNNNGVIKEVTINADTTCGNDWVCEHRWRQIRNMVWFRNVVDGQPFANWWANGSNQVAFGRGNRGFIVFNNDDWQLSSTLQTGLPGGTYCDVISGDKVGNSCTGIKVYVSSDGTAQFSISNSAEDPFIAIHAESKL
Chain of UniProt Q8IWT6 (whole entry, unmodified, looked up): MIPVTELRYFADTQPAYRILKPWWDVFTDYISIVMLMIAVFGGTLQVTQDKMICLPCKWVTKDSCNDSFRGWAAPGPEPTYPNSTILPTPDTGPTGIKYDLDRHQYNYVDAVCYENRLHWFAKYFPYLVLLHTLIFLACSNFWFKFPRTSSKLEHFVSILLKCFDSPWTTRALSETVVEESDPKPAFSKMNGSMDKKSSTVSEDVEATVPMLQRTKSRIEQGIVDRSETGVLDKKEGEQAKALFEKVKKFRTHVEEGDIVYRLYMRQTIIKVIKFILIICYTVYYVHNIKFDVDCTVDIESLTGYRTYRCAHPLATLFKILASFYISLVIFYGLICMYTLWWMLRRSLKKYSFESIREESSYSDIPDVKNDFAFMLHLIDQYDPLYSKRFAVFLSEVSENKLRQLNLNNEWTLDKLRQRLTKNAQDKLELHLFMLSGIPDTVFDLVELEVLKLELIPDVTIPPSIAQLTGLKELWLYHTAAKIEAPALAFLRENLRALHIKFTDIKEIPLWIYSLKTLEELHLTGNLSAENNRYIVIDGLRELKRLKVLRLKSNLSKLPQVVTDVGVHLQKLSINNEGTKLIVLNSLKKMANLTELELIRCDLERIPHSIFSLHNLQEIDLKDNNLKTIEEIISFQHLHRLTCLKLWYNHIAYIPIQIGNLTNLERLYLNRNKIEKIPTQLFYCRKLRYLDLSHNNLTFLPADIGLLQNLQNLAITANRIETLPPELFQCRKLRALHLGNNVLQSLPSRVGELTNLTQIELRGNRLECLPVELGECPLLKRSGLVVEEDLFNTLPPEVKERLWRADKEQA
Chain of UniProt P49761 (whole entry, looked up): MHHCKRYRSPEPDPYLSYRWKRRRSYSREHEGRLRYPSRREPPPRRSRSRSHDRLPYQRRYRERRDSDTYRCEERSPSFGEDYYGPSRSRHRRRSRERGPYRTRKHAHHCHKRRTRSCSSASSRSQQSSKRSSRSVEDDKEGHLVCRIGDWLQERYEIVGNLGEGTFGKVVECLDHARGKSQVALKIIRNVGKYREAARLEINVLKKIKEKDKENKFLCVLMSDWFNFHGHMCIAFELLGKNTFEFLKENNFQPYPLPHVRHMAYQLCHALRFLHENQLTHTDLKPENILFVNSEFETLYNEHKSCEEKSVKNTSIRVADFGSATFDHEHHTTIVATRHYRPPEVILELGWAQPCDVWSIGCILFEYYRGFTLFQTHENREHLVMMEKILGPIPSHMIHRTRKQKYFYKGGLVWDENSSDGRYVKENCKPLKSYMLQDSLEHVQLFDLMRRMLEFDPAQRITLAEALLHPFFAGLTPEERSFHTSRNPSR
Chain of UniProt P51817 (whole entry, looked up): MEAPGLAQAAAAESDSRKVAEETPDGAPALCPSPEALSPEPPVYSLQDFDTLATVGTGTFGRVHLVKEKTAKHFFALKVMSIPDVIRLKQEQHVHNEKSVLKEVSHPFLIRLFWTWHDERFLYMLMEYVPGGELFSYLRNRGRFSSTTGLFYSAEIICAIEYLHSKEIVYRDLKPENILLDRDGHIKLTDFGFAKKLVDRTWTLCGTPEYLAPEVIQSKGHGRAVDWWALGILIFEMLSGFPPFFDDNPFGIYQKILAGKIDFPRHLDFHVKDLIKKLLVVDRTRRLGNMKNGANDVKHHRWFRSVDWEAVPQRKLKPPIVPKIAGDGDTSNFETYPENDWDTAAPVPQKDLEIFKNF
Chain of UniProt P30968 (whole entry, looked up): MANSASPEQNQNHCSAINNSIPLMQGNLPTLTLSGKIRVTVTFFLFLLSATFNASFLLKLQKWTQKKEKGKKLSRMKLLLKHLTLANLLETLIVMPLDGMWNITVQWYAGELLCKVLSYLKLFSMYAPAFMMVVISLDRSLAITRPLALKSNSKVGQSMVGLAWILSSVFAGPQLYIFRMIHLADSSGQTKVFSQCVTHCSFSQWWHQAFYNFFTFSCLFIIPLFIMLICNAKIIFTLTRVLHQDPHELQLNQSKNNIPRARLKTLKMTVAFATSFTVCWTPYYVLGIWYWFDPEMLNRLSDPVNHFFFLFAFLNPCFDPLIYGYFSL
Chain of UniProt Q8N884 (whole entry, looked up): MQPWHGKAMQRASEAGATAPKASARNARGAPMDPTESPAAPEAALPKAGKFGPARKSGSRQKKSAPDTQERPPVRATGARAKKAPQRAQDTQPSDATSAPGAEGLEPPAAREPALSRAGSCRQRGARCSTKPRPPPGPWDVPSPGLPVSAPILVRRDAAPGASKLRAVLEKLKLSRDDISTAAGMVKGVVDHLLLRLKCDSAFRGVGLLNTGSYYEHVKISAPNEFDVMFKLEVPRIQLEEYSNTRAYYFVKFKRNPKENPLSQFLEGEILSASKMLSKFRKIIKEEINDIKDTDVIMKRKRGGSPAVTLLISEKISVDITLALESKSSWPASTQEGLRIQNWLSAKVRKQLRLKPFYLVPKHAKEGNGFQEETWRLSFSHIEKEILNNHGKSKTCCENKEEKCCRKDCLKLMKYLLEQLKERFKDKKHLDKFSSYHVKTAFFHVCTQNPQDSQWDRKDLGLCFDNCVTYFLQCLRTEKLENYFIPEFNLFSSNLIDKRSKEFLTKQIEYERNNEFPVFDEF

O=C(/C=C/c1cccc(OS(=O)(=O)Oc2ccc(C(F)(F)F)cc2)c1)NO
inhibition (HDAC11; 10 µM): 35%

O=C(CN1CCO[C@@H](COc2cccnc2)C1)N1CCc2ccccc21
inhibition (HTR5A; radioligand binding; concentration not given, with: [3H]LSD): 25.8%

CCS(=O)(=O)c1nc(S(=O)(=O)c2ccccc2Cl)c(N2CCN(C)C(=O)[C@H]2C)s1
inhibition (DRD4; 10 µM): 2.32%

O=C(NO)c1ccc(CN2CCCCc3ccccc32)c(F)c1
inhibition (HTR5A; radioligand binding, radioligand displacement; 10 µM, mean of replicates): 1.6%

c1cncc(OC[C@@H]2CN(CCN3CCc4ccccc43)CCO2)c1
inhibition (HTR5A; radioligand binding; concentration not given, with: [3H]LSD): 3.2%

O=C(NO)c1cccc(OS(=O)(=O)Oc2cccc(-c3ccccc3)c2)c1
inhibition (HDAC11; 10 µM): 8%

Cc1ncccc1OC[C@H]1CN(CCN2CCc3ccccc32)CCO1
inhibition (HTR5A; radioligand binding; concentration not given, with: [3H]LSD): -14.1%

Cc1cc2c(cc1N1C(=O)c3cccc4c(CCCO)ccc(c34)C1=O)n(C)c(=O)n2C (racemic)
inhibition (Protein polybromo-1, BD2 (PBRM1, Homo sapiens, UniProt Q86U86); binding, BROMOscan binding; 1000 nM): 70%

Cc1ccc(C(=O)Nc2ccc3ccccc3c2)o1
inhibition (KCNA3; ion current, inhibitor, whole-cell patch clamp; 10 µM): 8.3% and 24.4% and 14.1% and 21.6% and 10.9%

CN1CCN(c2cc(-c3ccncc3)c(-c3ccc4ccccc4c3)nn2)CC1
inhibition (GNRHR (Homo sapiens, UniProt P30968); antagonist, FLIPR; 10 µM): -2.7%

O=c1cc(-c2ccc(O)c(O)c2)oc2c(Br)c(O)c(Br)c(O)c12
inhibition (AMY2; enzyme activity, inhibitor; 50 µM, with: CNP-G3 substrate): 98.6 ± 1.8%

Cc1cc(=O)oc2ccc(-c3cc(-c4cccc(Cl)c4)nc(N)n3)c(O)c12
inhibition (AMY2; enzyme activity, inhibitor; concentration not given): 87.5 ± 1.23%

COc1ccc2c(c1)C(=O)N(CCCN1CCN(c3ccccc3OC)CC1)C2
inhibition (DRD4; radioligand binding; concentration not given, with: [3H]N-methylspiperone): 99.6%

CC[C@@H]1[C@H](F)C(=O)N[C@@H]1COc1nccc2cc(C(N)=O)c(OC)cc12
inhibition (CLK3 (Homo sapiens, UniProt P49761); ATP probe binding, KiNativ profiling, refers to: ATP loop probe site; THP-1 cell lysate; 0.2 mM): 0.659%

COc1cc(-c2cc(-c3ccc(N4CCNCC4)cc3)cnc2C)cc(OC)c1OC
inhibition (RPS6KB2 (Homo sapiens, UniProt Q9UBS0); kinome profiling; 0.1 µM): 15%

C=C1C(=O)O[C@@H]2C[C@@]3(C)CCCC(=C)[C@@H]3C[C@H]12
inhibition (TLR2 (Homo sapiens, UniProt O60603); SEAP reporter gene, antagonist; HEK-Blue hTLR2; 10 µM, with: Pam3CSK4): > 90%

O=C(Nc1cccc2c(=O)cc(-c3nnn[nH]3)oc12)c1ccc(OCCCCc2ccccc2)cc1
inhibition (LRRC8A/LRRC8C (Homo sapiens, UniProt Q8IWT6+Q8TDW0, M48D/T48D); ion current, whole-cell patch clamp; HCT LRRC8-/- cells; 10 µM, -100 mV, T48D/M48D heteromers): 2.04% and 12.1% and 3.9%

Cn1cc(-c2ccc(-c3cncc(Cl)c3N3CCC4(CCNC4=O)CC3)cc2)cn1
log2 fold change (COLO 205; gene expression, microarray, refers to: SLC8A1 mRNA; concentration not given, 6 h; baseline: untreated cells): 1.54

Cc1nn(-c2nc3c(F)cc(F)cc3s2)c(O)c1C(c1ccccc1C(=O)O)c1c(C)nn(-c2nc3c(F)cc(F)cc3s2)c1O
inhibition (Cyclic GMP-AMP synthase, catalytic domain; with DNA (CGAS, Homo sapiens, UniProt Q8N884); cGAS phase separation, inhibitor; 0.625 µM): 23.9%

CC(C)c1noc2ncc(C(=O)c3ccccc3O)cc12
inhibition (KCNA3; ion current, whole-cell patch-clamp; 10 µM, hKv1.3): 10.8%

NC/C(=C\F)COc1cccc(Cn2c(=S)[nH]c(=O)c3[nH]cnc32)c1
inhibition (rat P2Y receptor; radioligand binding; 10 µM): < 50%

CN(C(=O)n1cnc(-c2ccc[n+]([O-])c2)c1)C1CCCCC1
inhibition (Histamine H2 receptor (Cavia porcellus, UniProt P47747); binding; 10 µM): -3.18%

COc1cccc(OC[C@@H]2CN(CC(=O)N3CCc4ccccc43)CCO2)c1
inhibition (DRD4; radioligand binding; concentration not given, with: [3H]N-methylspiperone): 41.9%

C#Cc1cc(-c2cc(Nc3nc(N[C@@H](C)c4ccc(F)cn4)ncc3Cl)n[nH]2)ccc1C=O
inhibition (PRKX (Homo sapiens, UniProt P51817); enzyme activity, inhibitor; 0.2 µM): 56.7%

COc1cc(C(=O)NS(=O)(=O)c2ccccc2C)ccc1Cc1cn(C)c2ccc(NC(=O)OC3CCCC3)cc12
inhibition (LRRC8A/LRRC8C (Homo sapiens, UniProt Q8IWT6+Q8TDW0, L134K/L136K); ion current, whole-cell patch clamp; HCT LRRC8-/- cells; 30 µM, +100 mV, L134K/L136K heteromers): 88.2% and 99.2% and 86.9% and 77.9% and 95.5%

COc1cc2c(cc1OC)C(=O)N(CCCCN1CCN(c3ccccc3OC)CC1)C2
inhibition (HTR2B (Homo sapiens, UniProt P41595); radioligand binding; concentration not given, with: [3H]LSD): 95.6%

Cc1cc(-c2ccnc3[nH]cc(F)c23)cc(F)c1[C@@]1(O)[C@H](C)CN(C2CCS(=O)(=O)CC2)C[C@@H]1C
inhibition (AMPK alpha1 and alpha2; ATP probe binding, KiNativ, refers to: Lys1 site; HEK293T cell lysate; 0.1 µM): 5.7%

CC(C)(C)c1ccc(OS(=O)(=O)Oc2cc(F)cc(C(=O)NO)c2)cc1
inhibition (HDAC11; 5 µM): 51%

Cc1ccnc(C)c1OC[C@H]1CN(CCN2CCc3ccccc32)CCO1
inhibition (DRD4; radioligand binding; concentration not given, with: [3H]N-methylspiperone): 54.6%

CCc1oc2ccccc2c1C(=O)c1cc(Br)c(O)c(Br)c1
inhibition (SLC22A12 (Homo sapiens, UniProt Q96S37, I156A); uric acid uptake; HEK293T transfected with SLC22A12 I156A; 0.5 µM, 10 min, 37 °C, mean, with: [14C]urate 200 µM): 8.84%

O=c1c(O)c(-c2ccc(O)c(O)c2)oc2c(Br)c(O)c(Br)c(O)c12
inhibition (AMY2; enzyme activity, inhibitor; 50 µM, with: CNP-G3 substrate): 71.5 ± 1.86%

Clc1cncc(OC[C@@H]2CN(CCN3CCc4ccccc43)CCO2)c1
inhibition (HTR5A; radioligand binding; concentration not given, with: [3H]LSD): 16.1%

A few entries again:
COc1cc2c(cc1OC)C(=O)N(CCCCN1CCN(c3ccccc3OC)CC1)C2
inhibition (HTR2B (Homo sapiens, UniProt P41595); radioligand binding; concentration not given, with: [3H]LSD): 95.6%

Cc1cc(-c2ccnc3[nH]cc(F)c23)cc(F)c1[C@@]1(O)[C@H](C)CN(C2CCS(=O)(=O)CC2)C[C@@H]1C
inhibition (AMPK alpha1 and alpha2; ATP probe binding, KiNativ, refers to: Lys1 site; HEK293T cell lysate; 0.1 µM): 5.7%

CC(C)(C)c1ccc(OS(=O)(=O)Oc2cc(F)cc(C(=O)NO)c2)cc1
inhibition (HDAC11; 5 µM): 51%

Cc1ccnc(C)c1OC[C@H]1CN(CCN2CCc3ccccc32)CCO1
inhibition (DRD4; radioligand binding; concentration not given, with: [3H]N-methylspiperone): 54.6%
